Results of several laboratories.
Each line is one published result; not all experiments were run side by side. “And” joins repeats or separate records; there may be more than shown. Numbers after ± are the reported error.
OPRM1: Mu-type opioid receptor (OPRM1, Homo sapiens, UniProt P35372)
Sequence of UniProt P34972 (whole entry, looked up): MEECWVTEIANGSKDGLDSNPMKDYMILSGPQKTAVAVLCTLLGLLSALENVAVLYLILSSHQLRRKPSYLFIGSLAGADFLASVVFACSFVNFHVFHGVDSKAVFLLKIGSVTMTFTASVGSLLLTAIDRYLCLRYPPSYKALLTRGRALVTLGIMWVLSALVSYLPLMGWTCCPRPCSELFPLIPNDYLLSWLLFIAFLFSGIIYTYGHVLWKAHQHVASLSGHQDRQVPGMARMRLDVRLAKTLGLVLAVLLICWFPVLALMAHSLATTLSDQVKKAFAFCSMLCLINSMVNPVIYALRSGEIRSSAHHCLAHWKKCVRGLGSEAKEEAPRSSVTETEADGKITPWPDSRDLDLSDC
Sequence of UniProt P35372 (whole entry, looked up): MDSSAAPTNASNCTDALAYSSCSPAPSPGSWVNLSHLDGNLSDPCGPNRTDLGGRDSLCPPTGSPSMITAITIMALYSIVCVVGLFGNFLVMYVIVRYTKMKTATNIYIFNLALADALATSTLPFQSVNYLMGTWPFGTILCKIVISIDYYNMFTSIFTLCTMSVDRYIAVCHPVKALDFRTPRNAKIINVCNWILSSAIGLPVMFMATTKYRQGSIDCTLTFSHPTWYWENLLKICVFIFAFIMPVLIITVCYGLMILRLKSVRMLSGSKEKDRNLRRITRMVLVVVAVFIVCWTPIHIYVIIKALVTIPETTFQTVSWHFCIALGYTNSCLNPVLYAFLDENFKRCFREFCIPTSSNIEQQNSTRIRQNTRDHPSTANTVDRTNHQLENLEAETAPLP
Sequence of UniProt Q0P543 (whole entry, looked up): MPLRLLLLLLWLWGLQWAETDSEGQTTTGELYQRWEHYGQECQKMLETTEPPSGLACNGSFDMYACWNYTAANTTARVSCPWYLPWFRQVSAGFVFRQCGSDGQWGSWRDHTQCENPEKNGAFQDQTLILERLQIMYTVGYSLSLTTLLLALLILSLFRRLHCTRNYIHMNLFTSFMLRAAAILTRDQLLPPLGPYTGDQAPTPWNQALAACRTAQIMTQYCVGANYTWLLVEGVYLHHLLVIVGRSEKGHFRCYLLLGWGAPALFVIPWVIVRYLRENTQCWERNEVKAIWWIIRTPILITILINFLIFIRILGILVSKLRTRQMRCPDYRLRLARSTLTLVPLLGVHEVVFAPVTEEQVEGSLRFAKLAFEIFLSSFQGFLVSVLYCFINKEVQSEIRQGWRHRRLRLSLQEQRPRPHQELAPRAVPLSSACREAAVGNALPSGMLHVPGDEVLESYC
Sequence of UniProt P41145 (whole entry, looked up): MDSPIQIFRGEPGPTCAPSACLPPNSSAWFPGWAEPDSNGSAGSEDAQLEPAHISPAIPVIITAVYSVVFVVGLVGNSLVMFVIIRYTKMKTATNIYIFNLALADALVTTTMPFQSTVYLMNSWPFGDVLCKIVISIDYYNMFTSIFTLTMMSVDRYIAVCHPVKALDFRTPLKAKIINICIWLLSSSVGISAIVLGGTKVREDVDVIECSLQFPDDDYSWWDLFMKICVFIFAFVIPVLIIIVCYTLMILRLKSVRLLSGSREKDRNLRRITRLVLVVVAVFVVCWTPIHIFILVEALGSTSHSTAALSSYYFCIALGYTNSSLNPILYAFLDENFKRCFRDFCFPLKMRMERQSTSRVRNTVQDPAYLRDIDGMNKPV
Sequence of UniProt Q15858 (whole entry, looked up): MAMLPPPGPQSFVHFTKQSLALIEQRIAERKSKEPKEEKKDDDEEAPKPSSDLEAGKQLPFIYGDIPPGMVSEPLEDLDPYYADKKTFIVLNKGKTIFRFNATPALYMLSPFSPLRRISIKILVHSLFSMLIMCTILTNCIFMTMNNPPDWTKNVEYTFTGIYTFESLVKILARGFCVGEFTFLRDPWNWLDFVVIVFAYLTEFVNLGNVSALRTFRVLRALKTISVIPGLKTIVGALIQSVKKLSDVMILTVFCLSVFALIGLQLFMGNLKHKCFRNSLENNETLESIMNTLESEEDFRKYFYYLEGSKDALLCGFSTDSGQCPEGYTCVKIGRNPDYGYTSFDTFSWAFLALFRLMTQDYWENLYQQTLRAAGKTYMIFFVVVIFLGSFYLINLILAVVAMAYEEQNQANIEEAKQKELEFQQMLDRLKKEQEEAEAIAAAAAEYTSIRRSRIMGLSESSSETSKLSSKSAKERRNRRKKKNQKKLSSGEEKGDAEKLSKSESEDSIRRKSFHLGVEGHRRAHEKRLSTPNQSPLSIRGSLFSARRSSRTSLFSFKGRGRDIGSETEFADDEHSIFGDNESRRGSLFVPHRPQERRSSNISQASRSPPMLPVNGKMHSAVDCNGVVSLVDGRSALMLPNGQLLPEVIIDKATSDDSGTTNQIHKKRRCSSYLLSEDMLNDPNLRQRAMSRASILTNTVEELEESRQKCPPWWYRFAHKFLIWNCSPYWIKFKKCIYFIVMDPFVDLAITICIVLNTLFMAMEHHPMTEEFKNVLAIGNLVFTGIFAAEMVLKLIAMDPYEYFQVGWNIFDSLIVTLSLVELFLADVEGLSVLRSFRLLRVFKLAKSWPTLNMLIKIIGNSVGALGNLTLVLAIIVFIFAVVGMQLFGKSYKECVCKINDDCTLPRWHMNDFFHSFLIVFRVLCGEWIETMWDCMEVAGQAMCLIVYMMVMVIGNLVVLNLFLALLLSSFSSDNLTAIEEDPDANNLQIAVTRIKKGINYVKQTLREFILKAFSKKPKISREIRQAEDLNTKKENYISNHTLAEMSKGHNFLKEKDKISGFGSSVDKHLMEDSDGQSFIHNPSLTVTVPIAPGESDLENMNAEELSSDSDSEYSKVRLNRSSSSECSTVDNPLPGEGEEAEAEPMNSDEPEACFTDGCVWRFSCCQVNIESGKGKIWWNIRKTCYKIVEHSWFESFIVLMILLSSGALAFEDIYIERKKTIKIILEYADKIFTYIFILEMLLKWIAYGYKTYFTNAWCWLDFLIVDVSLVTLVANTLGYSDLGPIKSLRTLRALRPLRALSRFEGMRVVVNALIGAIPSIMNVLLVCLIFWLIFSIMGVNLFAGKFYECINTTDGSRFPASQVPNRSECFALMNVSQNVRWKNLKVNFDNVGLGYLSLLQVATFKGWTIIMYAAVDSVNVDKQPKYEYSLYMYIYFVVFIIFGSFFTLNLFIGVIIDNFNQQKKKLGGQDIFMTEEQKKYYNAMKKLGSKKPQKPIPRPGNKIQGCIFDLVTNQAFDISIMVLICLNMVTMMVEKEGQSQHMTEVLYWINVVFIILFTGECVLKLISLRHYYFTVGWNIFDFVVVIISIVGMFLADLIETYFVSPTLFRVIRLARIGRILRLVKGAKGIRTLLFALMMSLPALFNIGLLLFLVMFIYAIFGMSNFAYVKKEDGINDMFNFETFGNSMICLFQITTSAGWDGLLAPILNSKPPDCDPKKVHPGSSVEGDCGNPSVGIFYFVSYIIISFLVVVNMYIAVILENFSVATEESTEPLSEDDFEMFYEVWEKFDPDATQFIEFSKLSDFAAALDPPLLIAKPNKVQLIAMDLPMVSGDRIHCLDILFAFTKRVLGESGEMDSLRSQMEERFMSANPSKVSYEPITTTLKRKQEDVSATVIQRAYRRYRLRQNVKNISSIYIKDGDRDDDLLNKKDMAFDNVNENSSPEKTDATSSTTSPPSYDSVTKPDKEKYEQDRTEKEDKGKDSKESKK
Sequence of UniProt P43220 (whole entry, looked up): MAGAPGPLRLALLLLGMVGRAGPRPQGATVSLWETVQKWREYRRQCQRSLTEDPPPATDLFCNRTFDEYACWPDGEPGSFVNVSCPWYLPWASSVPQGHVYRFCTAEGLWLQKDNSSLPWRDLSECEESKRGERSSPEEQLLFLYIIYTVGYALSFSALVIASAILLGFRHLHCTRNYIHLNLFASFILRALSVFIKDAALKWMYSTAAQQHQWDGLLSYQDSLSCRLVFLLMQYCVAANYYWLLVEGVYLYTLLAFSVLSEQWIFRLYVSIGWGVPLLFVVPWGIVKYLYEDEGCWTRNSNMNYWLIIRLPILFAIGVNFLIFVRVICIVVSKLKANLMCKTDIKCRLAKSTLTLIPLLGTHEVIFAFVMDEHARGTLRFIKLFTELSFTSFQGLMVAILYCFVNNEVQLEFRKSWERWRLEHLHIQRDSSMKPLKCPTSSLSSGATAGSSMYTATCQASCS
Sequence of UniProt P41146 (whole entry, looked up): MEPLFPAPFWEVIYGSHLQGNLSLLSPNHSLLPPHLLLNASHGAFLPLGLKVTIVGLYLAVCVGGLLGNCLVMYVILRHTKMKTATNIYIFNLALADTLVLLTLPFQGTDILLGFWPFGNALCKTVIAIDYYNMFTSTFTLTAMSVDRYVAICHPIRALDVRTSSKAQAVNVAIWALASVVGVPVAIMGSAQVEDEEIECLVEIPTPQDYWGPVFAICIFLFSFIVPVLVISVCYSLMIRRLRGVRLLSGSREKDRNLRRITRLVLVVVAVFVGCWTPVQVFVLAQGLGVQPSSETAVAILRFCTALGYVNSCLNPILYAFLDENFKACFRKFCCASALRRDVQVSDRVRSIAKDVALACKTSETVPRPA

`Cc1ccc(C)c(OCCn2cc(C(=O)O)c3ccccc32)c1` has an EC50 of 794 nM (RAC1 (Homo sapiens, UniProt P63000); GTP binding, flow cytometry bead; EDTA buffer, added: 100 nM BODIPY-GTP).
The EC50 of `Cc1cc(O)cc(C)c1C[C@H](N)C(=O)NCC(=O)NCC(=O)N[C@@H](Cc1ccccc1)C(=O)N[C@H](C(=O)NCC(=O)N[C@@H](C)C(=O)N[C@@H](CCCNC(=N)N)C(=O)N[C@@H](CCCCN)C(=O)N[C@@H](CO)C(=O)N[C@@H](C)C(=O)N[C@@H](CCCNC(=N)N)C(=O)N[C@@H](CCCCN)C(N)=O)[C@@H](C)O` is reported as 0.347 nM (Nociceptin receptor (OPRL1, Homo sapiens, UniProt P41146); GTPγS binding, agonist, radiometric; cell membranes).
For `CCCCCCCCCCCCCCCC(=O)N[C@@H](CCC(=O)NCCCC[C@H](NC(=O)[C@H](CC(=O)O)NC(=O)[C@H](CO)NC(=O)[C@@H](NC(=O)[C@H](Cc1ccccc1)NC(=O)[C@@H](NC(=O)CNC(=O)[C@H](CCC(N)=O)NC(=O)C(C)(C)NC(=O)[C@@H](N)Cc1c[nH]cn1)[C@@H](C)O)[C@@H](C)O)C(=O)N[C@@H](CO)C(=O)N[C@@H](CCCCN)C(=O)N[C@@H](Cc1ccc(O)cc1)C(=O)N[C@@H](CC(C)C)C(=O)N[C@@H](CC(=O)O)C(=O)N[C@@H](CCC(=O)O)C(=O)N[C@@H](CCCNC(=N)N)C(=O)N[C@@H](C)C(=O)N[C@@H](C)C(=O)N[C@@H](CCC(N)=O)C(=O)N[C@@H](CC(=O)O)C(=O)N[C@@H](Cc1ccccc1)C(=O)N[C@H](C(=O)N[C@@H](CCC(N)=O)C(=O)N[C@@H](Cc1c[nH]c2ccccc12)C(=O)N[C@@H](CC(C)C)C(=O)N[C@@H](CC(C)C)C(=O)N[C@@H](CC(=O)O)C(=O)NCC(=O)NCC(=O)N1CCC[C@H]1C(=O)N[C@@H](CO)C(=O)N[C@@H](CO)C(=O)NCC(=O)N[C@@H](C)C(=O)N1CCC[C@H]1C(=O)N1CCC[C@H]1C(=O)N1CCC[C@H]1C(=O)N[C@@H](CO)C(N)=O)C(C)C)C(=O)O`, the EC50 was 0.0013 nM (GLP1R (Homo sapiens, UniProt P43220); reporter gene, agonist, CRE-luciferase reporter; BHK cells; 3 h, 37 °C, 0% HSA).
The EC50 of `CC[C@H](C)[C@@H]1NC(=O)[C@H]([C@@H](C)O)NC(=O)[C@H](CCC(=O)O)NC(=O)[C@H](CO)NC(=O)[C@H](Cc2ccc(O)cc2)NC(=O)[C@@H]2CSSC[C@@H]3NC(=O)[C@H]([C@@H](C)CC)NC(=O)[C@@H]4CCCN4C(=O)[C@H](Cc4c[nH]c5ccccc45)NC(=O)[C@H](CCC(=O)O)NC(=O)[C@@H]4CSSC[C@H](NC(=O)[C@H]([C@@H](C)O)NC(=O)[C@H](CCC(=O)O)NC(=O)CNC(=O)[C@H](CSSC[C@H](NC(=O)CNC1=O)C(=O)N[C@@H]([C@@H](C)O)C(=O)N4)NC(=O)[C@@H]1CCCN1C(=O)[C@H](CC(C)C)NC(=O)[C@@H]1CCCN1C(=O)[C@H](CC(=O)O)NC(=O)CNC(=O)[C@H](CC(N)=O)NC(=O)[C@H](CCCCN)NC(=O)[C@H]([C@@H](C)O)NC3=O)C(=O)N[C@@H](Cc1ccccc1)C(=O)N[C@@H]([C@@H](C)O)C(=O)NCC(=O)N[C@@H](CCCCN)C(=O)N2` is reported as 8000 nM and 7800 nM (CNR2 (Homo sapiens, UniProt P34972); cAMP, agonist, TR-FRET).
`CC(C)C[C@H](NC(=O)[C@H](CO)NC(=O)[C@H](CCCCN)NC(=O)[C@H](CC(C)C)NC(=O)CNC(=O)[C@H](CCCCN)NC(=O)[C@H](CCC(=O)O)NC(=O)[C@H](C)NC(=O)[C@H](CC(C)C)NC(=O)[C@H](CC(N)=O)NC(=O)[C@@H]1CCCN1C(=O)[C@H](CC(C)C)NC(=O)[C@H](Cc1ccccc1)NC(=O)CNC(=O)[C@H](NC(=O)[C@@H](N)Cc1ccc(O)cc1)[C@H](C)O)C(N)=O` has a Ki of 13 ± 0.97 nM (OPRM1; radioligand displacement; CHO membranes; 60 min, pH 7.5, 25 °C, added: 0.25 nM [3H]DAMGO).
For `CC[C@H](C)[C@H](NC(=O)[C@H](CCCN)NC(=O)[C@H](CC(=O)O)NC(=O)[C@H](CC(C)C)NC(=O)C(C)(CC(C)C)NC(=O)[C@@H](NC(=O)[C@H](CO)NC(=O)[C@H](Cc1ccc(O)cc1)NC(=O)[C@H](CC(=O)O)NC(=O)[C@H](CO)NC(=O)[C@@H](NC(=O)[C@H](Cc1ccccc1)NC(=O)[C@@H](NC(=O)CNC(=O)[C@H](CCC(=O)O)NC(=O)C(C)(C)NC(=O)[C@@H](N)Cc1ccc(O)cc1)[C@@H](C)O)[C@@H](C)CC)[C@@H](C)CC)C(=O)N[C@@H](Cc1c[nH]cn1)C(=O)N[C@@H](CCC(N)=O)C(=O)NC(C)(C)C(=O)N[C@@H](CC(=O)O)C(=O)N[C@@H](Cc1ccccc1)C(=O)N[C@H](C(=O)N[C@@H](CCC(=O)O)C(=O)N[C@@H](Cc1ccc(O)cc1)C(=O)N[C@@H](CCCCNC(=O)COCCOCCNC(=O)COCCOCCNC(=O)CC[C@H](NC(=O)CCCCCCCCCCCCCCCCCCC(=O)O)C(=O)O)C(=O)N[C@@H](CC(C)C)C(=O)N[C@@H](CCC(=O)O)C(=O)NCC(=O)NCC(=O)N1CCC[C@H]1C(=O)N[C@@H](CO)C(=O)N[C@@H](CO)C(=O)NCC(=O)N[C@@H](C)C(=O)N1CCC[C@H]1C(=O)N1CCC[C@H]1C(=O)N1CCC[C@H]1C(=O)N[C@@H](CO)C(N)=O)C(C)C` (stereo partly shown), the EC50 was 1.45 nM (Gastric inhibitory polypeptide receptor (Mus musculus, UniProt Q0P543); cAMP, agonist).
With `CC(C)C[C@H](NC(=O)[C@H](CO)NC(=O)[C@H](CCCCN)NC(=O)[C@H](CC(C)C)NC(=O)[C@H](C)NC(=O)[C@H](CCCCN)NC(=O)[C@H](CCC(=O)O)NC(=O)C(C)(C)NC(=O)[C@H](CC(C)C)NC(=O)[C@H](CC(N)=O)NC(=O)[C@@H]1CCCN1C(=O)[C@H](CC(C)C)NC(=O)[C@H](Cc1ccccc1)NC(=O)CNC(=O)[C@H](NC(=O)[C@@H](N)Cc1ccc(O)cc1)[C@H](C)O)C(N)=O` the Ki was 21 ± 2.6 nM (OPRM1; radioligand displacement; CHO membranes; 60 min, pH 7.5, 25 °C, added: 0.25 nM [3H]DAMGO).
`CC[C@H](C)[C@@H]1NC(=O)[C@H](CCCNC(=N)N)NC(=O)[C@H](Cc2ccccc2)NC(=O)[C@H](CC(C)C)NC(=O)[C@H](CO)NC(=O)[C@@H]2CSSC[C@@H]3NC(=O)[C@H]([C@@H](C)O)NC(=O)[C@H](CSSC[C@H](NC(=O)[C@H](CCCNC(=N)N)NC(=O)[C@@H]4CCCN4C(=O)[C@@H](N)CC(C)C)C(=O)N[C@@H](CC(=O)O)C(=O)N[C@@H](CO)C(=O)N4CCC[C@H]4C(=O)N[C@@H](Cc4ccccc4)C(=O)N2)NC(=O)[C@H](CCCCN)NC(=O)[C@H](CC(=O)O)NC(=O)CNC(=O)[C@H](CSSC[C@@H](C(=O)N[C@H](C(=O)N2CCC[C@H]2C(=O)N[C@@H](CC(=O)O)C(=O)N[C@H](C(=O)O)C(C)C)C(C)C)NC(=O)[C@H](CC(C)C)NC(=O)CNC(=O)[C@H](Cc2ccccc2)NC(=O)[C@H]([C@@H](C)CC)NC(=O)[C@@H]2CCCN2C(=O)[C@H](CC(C)C)NC(=O)[C@@H]2CCCN2C(=O)[C@H](C(C)C)NC3=O)NC(=O)[C@H](CC(C)C)NC(=O)CNC1=O` has an EC50 of 57.5 nM (SCN9A (Homo sapiens, UniProt Q15858); delay of inactivation, automated patch clamp, refers to: sustained current relative to peak; TE-671 cells; 5 min per concentration, holding -90 mV, pulse to -20 mV).
For `CC(C)C[C@H](NC(=O)[C@H](CO[C@@H]1O[C@H](CO)[C@@H](O[C@@H]2O[C@H](CO)[C@H](O)[C@H](O)[C@H]2O)[C@H](O)[C@H]1O)NC(=O)[C@H](CCCCN)NC(=O)[C@H](CC(C)C)NC(=O)[C@H](C)NC(=O)[C@H](CCCCN)NC(=O)[C@H](CCC(=O)O)NC(=O)CNC(=O)[C@H](CC(C)C)NC(=O)[C@H](CC(N)=O)NC(=O)[C@@H]1CCCN1C(=O)[C@H](CC(C)C)NC(=O)[C@H](Cc1ccccc1)NC(=O)CNC(=O)[C@H](NC(=O)[C@@H](N)Cc1ccc(O)cc1)[C@H](C)O)C(N)=O`, the Ki was 23 nM (OPRK1 (Homo sapiens, UniProt P41145); ligand displacement, radioligand; pH 7.5, cell membranes).
The Ki of `CC[C@H](C)[C@@H]1NC(=O)[C@H](CC(=O)O)NC(=O)[C@H]([C@@H](C)O)NC(=O)[C@@H]2CSSC[C@@H]3NC(=O)[C@H](CC(C)C)NC(=O)[C@H](CC(N)=O)NC(=O)[C@H](CC(C)C)NC(=O)[C@H](CCCNC(=N)N)NC(=O)[C@H](Cc4ccc(O)cc4)NC(=O)[C@H](CCCCN)NC(=O)[C@H](CCSC)NC(=O)[C@H](CO)NC(=O)[C@H]([C@@H](C)O)NC(=O)[C@H](CCCNC(=N)N)NC(=O)[C@H](CSSC[C@H](NC(=O)[C@H]([C@@H](C)O)NC(=O)[C@H](CCCCN)NC(=O)[C@H](CCCNC(=N)N)NC3=O)C(=O)NCC(=O)N[C@@H](CO)C(=O)N[C@H](C(=O)O)CSSC[C@H](NC(=O)[C@@H](NC(=O)[C@@H](N)CCCNC(=N)N)[C@@H](C)O)C(=O)N[C@@H](CCCCN)C(=O)N[C@@H](CC(=O)O)C(=O)N[C@@H](CC(C)C)C(=O)N[C@@H]([C@@H](C)CC)C(=O)N3CCC[C@H]3C(=O)N[C@@H](C(C)C)C(=O)N[C@@H](CO)C(=O)N[C@@H](CCC(=O)O)C(=O)N2)NC(=O)[C@H](CCCNC(=N)N)NC1=O` is reported as 0.94 ± 0.08 nM (KcsA-Shaker channel; potassium current, inhibitor, two-electrode voltage clamp; Xenopus oocytes).
